# Results from different studies.
# ± marks the error that the study gave.
# UCHL1: Ubiquitin carboxyl-terminal hydrolase isozyme L1 (UCHL1, Homo sapiens, UniProt P09936)
# Sequence of UniProt P09936 (whole entry, looked up): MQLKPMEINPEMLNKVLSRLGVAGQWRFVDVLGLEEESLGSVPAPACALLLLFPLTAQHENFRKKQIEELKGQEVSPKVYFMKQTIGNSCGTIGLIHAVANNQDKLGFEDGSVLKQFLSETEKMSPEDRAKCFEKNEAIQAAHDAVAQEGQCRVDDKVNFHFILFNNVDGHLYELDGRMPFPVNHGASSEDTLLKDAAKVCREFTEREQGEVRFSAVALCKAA
Compound,tested on,assay,test system,setting,endpoint,value
CC(C)[C@@H](CS(=O)(=O)C(C)C)N1C(=O)[C@@](C)(CC(=O)O)C[C@H](c2cccc(Cl)c2)[C@H]1c1ccc(Cl)cc1,,,"FVB mice Abcb1a/b knockout, brain","intravenous, 20 mg/kg",AUC(0-inf),9830 ± 1290 ng·h/mL
OCc1nc2ccc(NCc3ccc(C(F)(F)F)cc3)cc2[nH]1,,,"Balb/c mice male, plasma","oral, 10 mg/kg",AUC(0-inf),2730 ± 410 ng·h/mL
CC(Cl)C(=O)N1CCC(N(CC(F)(F)F)S(C)(=O)=O)CC1 (stereo not shown),UCHL1,"covalent, intact protein LC-MS",,12.5 µM,labelling,18.1%
Cc1[nH]c(C)c(S(=O)(=O)Nc2ccc(C(F)(F)F)c(Cl)c2)c1C(=O)N1CCC(F)(F)C1,,,"mice, brain","intraperitoneal, 40 mg/kg",AUC(0-inf),23000 ng·h/g
CC1(C)CC[C@]2(C(=O)O)CC[C@]3(C)C(=CC[C@@H]4[C@@]5(C)C[C@@H](O)[C@H](OC(=O)/C=C/c6ccc(O)cc6)C(C)(C)[C@@H]5CC[C@]43C)[C@@H]2C1 (relative stereo),,,"C57BL/6 mice, brain","intraperitoneal, 85 µmol/kg single dose",AUC(0-inf),8.37 nmol·h/g
c1ccc(-c2nc(N3CCC(c4ccccn4)C3)c3ccccc3n2)nc1 (stereo not shown),,,"female Balb/c mice, plasma","oral, 12.5 mg/kg, mean, added: ABT",AUC(0-inf),28800 ng·h/mL
CCOC(=O)c1cc(Cl)cc(NC(=O)c2sc(Cl)cc2S(=O)(=O)N(C)c2ccc(OCC)c(OC)c2)c1,,,"male C57BL/6 mice, brain","intraperitoneal, 10 mg/kg",AUC(0-inf),31.4 ng·h/g
Cc1cc2sc(N)nc2c2cccnc12,,,"female BALB/c mice, plasma","intraperitoneal, 30 mg/kg",AUC(0-inf),45600 ng·h/mL
Cn1cc(S(=O)(=O)N2CCOCC2)cc1C(=O)NC(=O)CCl,UCHL1,"covalent, intact protein LC-MS",,12.5 µM,labelling,17.7%
CCN1CCN(Cc2ccc(NC(=O)c3ccc(C)c(NC(=O)c4cncc(-c5cccs5)c4)c3)cc2C(F)(F)F)CC1,,,"C57BL/6 mice, epithelial lining fluid","intraperitoneal, 10 mg/kg",AUC(0-inf),4490 ng·h/mL
